Assay results pooled from the literature.
Numbered parts are unrelated; each lists some results of a single study.

Study 1
Target: Interferon regulatory factor 5, full length, phosphomimetic (IRF5, Homo sapiens, UniProt Q13568-2, residues 1-514, S451D/S453D/S456D/S462D)
Technique: protein-binding microarray
Molecule type: double-stranded DNA, one strand shown
Sample: in vitro
Tested at: 940 nM top
Notes: 60-bp whole probe
Together with: salmon DNA 0.4 mg/ml
Reference: random background probes
Direction: higher = stronger binding
All sequences stand within: GCCTAGCAC … GTCTTGATTCGCTTGACGCTGCTG
Sequence | fitted relative affinity [z-score]
TCAATATCCATTATAGAACTGTGCTAG | 0.612
TTACCTCTCACGCATCTGAAAGTGCTA | 1.1
TTAGGTATCGGGACAGGGTTAGTGCTA | 4.34
TATGTTCCCTATTTAAGACCGTGCTAG | 0.836
GACGGACGGGGGACTGGGGACGTGCTA | 0.752
GATGTTTTTCATTTTTTTTCGTGCTAG | 1.56
TTAGAACTGAGTTTCGATTTGTGCTAG | 6.87
TCATTTTTCACCTGCACACTGTGCTAG | 1.39
TTAGGTTTCGGGGCTGGGTTAGTGCTA | 8.45
TGAGATTTCAGTCTCGATTAGTGCTAG | 3.42
TTAGGACTGGGTACTGGGTTAGTGCTA | -0.492
GACGATTTCGGGACTGGACACGTGCTA | 0.305
TCATTTCTGAATGCTCCCACTGTGCTA | 0.277
TTAGATGTCAGTTTCGATTAGTGCTAG | 7.56
GACGGTATCGACTTTCGGAACGTGCTA | 4.74
TAGTTTTCATTTTCTGAATGTGTGCTA | 2.33
GACGGTCTCCGTTTCGGGACGTGCTAG | 0.851

Study 2
Target: RING finger protein unkempt homolog, zinc fingers 1-6, GST-SBP tag (UNK, Homo sapiens, UniProt Q9C0B0, residues 30-357)
Technique: RNA Bind-n-Seq
Molecule type: RNA
Sample: in vitro
Tested at: not given
Notes: RNA with constant flanks, ends assumed
Reference: input RNA pool
Direction: higher = stronger binding
All sequences stand within: GGGAGUUCUACAGUCCGACGAUC … CAACAGAGGAUUGAGCAUCA
Residues (chain): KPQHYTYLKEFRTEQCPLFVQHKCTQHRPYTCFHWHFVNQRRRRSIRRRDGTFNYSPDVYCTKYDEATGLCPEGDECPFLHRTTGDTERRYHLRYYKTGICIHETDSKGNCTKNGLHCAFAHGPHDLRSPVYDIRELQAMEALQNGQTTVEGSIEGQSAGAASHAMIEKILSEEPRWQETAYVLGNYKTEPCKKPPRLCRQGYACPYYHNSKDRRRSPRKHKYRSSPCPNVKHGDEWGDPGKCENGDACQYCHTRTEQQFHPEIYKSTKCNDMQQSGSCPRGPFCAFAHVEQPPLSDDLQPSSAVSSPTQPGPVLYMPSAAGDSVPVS
Sequence | bound/input enrichment
UAGCUUGAGCUUUCUUUUUGGCCAUCUUUUAAAACUUUUUUUUUUUUUUUUGAUCUAUAAAACCGACAAGAGAUAGUUCUACAAUGUCCAAGUCAUUCCAGCAGUCAUCUCUCGGUAGGG | 2.06 ratio
UCAGACAUCUACGUGUGCAUGAUCUCCUAUGCACACAACGUGGCGGCCCAGGGCAAGUACACCGCUAUUGCCAGCACUACUGUGGAGACCACGGACCCUGAAAAGGAGGUGGAGCCGGCU | 0.0604 ratio
AUUAUUUUUAAUGAAAUGCCAAUAUAAUUUUUUAAGAAAGCAGUAAAUUCUCAUCAUGAUCACCGGCAGUUGAAAACUUUUUACUCAUUUUUUUCAUGUUUUACAUGAAAAUAAUGCUUU | 0.274 ratio
UGUAGUUCUGAAUACACAGGUUUUGUGUGUAUUUACUCUAUGUAUUAAAUUAUUAUUGCCCUCCGUUUAAAGUAAGGAUUACAAUUGGAUUUAAGUAGAUCACUGAAUGUUAUUGUUUAU | 1.7 ratio
GGGGAGAAACCUUAUGAAUGCGUUCAGUGUGGGAAAUCGUAUAGUCAAAGCUCAAAUCUUUUCCGACAUCAGAGAAGACACAAUGCAGAAAAACUUCUGAAUGUUGUGAAAGUUUAAGAA | 0.444 ratio
UAUGCAGGGGACGGUCCCGGCCCUGUUCGUCCAUUCUGUAAAUAACUUGUAAAUAGUCUUCCGCAUUCCUCUUGUAACAAGAUUAAUUUUUAUGAAAUAAAUUAUAUUUCCUAGUCUAAU | 1.33 ratio
ACUUUAAGUUGUUGGAAUUCCUUUAAGAAGAGUAUAAAUUAUUUUUUUUAUUUAAAAGGACCGUUGAUUCCUGGGGUACUUUGUUUUGAAAUUAGAAGUUGUUAAGGACACUUUUGUUGU | 4.82 ratio
UGUCUGGCCCAGGUGCUGCAGAAGGAUGUGGGAAAGCGGCUGCAGGUUGGCCAGGAACUCACCGACUAUUUCUCAGACAGACAGAAGUCUGCUGACCUUGAGCACGACCAGACCCUGUUG | 0.149 ratio

Study 3
Target: Sal-like protein 4, full length isoform A (SALL4, Homo sapiens, UniProt Q9UJQ4, residues 1-1053)
UniProt Q9UJQ4, sequence (whole entry, looked up): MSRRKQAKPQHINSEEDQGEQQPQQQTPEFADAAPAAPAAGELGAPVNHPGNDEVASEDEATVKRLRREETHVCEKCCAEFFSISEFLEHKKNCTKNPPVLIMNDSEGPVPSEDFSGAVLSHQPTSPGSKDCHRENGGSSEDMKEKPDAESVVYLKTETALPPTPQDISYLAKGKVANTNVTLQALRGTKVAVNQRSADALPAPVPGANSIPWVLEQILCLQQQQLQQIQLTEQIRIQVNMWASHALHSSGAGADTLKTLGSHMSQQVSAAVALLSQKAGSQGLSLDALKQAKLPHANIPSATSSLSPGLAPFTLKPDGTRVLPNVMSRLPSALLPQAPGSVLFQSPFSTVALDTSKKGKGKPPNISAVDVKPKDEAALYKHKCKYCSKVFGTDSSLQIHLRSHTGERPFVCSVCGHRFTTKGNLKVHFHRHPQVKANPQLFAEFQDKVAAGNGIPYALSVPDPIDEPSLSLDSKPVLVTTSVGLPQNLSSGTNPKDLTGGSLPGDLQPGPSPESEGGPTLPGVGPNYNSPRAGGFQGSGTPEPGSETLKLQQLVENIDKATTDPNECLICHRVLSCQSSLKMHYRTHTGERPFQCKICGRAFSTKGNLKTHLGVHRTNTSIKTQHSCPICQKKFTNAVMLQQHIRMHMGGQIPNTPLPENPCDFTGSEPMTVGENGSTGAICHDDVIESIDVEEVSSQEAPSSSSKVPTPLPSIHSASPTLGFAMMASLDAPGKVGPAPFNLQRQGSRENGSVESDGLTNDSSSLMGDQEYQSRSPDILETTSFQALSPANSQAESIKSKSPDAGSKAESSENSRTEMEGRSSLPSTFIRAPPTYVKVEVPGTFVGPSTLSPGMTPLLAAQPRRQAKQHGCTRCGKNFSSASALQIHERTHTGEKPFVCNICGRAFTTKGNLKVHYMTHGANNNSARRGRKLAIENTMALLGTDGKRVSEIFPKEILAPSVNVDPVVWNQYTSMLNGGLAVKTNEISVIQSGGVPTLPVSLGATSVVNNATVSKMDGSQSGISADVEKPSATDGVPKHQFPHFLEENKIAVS
Technique: universal PBM
Molecule type: double-stranded DNA, one strand shown
Sample: in vitro
Tested at: 600 nM
Notes: 8-mer, flanks averaged, mean of replicates
Direction: higher = stronger binding
Sequence | E-score
AATGGGCG | -0.187
AAACATGA | 0.285
CGCAAAAC | 0.049
ATTTTACA | 0.283
AGTCCGAT | 0.0731
ACGATCAA | 0.208
AGTTATGA | 0.41
CCTATCAC | -0.131
GAAGCAGA | 0.0816
AGAACAAC | -0.0518
GAGGCCGC | -0.382
ACGGCCGA | -0.182
AACTTGTC | 0.0882
AATCCAAG | 0.12
GGTCTAAC | -0.166
CGAGCCCA | -0.255
CGTCAGTC | -0.147
ATTGTTAC | 0.307
CTCATCAC | -0.0195
AGGGTCGG | -0.32
AACAGGTA | 0.0915

Study 4
Target: Histone acetyltransferase KAT6A, winged helix 1, GST fusion (KAT6A, Homo sapiens, UniProt Q92794, residues 1-85)
Technique: protein binding microarray
Molecule type: double-stranded DNA, one strand shown
Sample: in vitro
Tested at: not given
Notes: 8-mer, flanks averaged, mean of 2 arrays, mostly near background
Reference: not given
Direction: higher = stronger binding
Target sequence (chain): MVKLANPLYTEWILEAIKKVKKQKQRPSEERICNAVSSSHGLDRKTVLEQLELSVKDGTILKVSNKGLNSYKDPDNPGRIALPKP
Sequence | E-score
AAAGCTCC | -0.00806
CTGCGCTC | 0.189
ATCCGTTC | 0.116
ACAGATGT | -0.111
AATATGCC | 0.0687
CTACCCCC | -0.152
GCGAAACA | 0.0787
CTTTTTTC | -0.159
TAAATTAA | -0.138
CGCTGCAG | 0.0604
GACTGCAA | -0.126
ATTTTGTA | -0.0798
ACGAGTAC | -0.154
CAACAGGG | -0.288
CAGGTGCA | -0.257
CGAAACCC | 0.0826
ACGTGTAT | -0.181
CTCCTCCA | -0.216
TGGTACCA | 0.00261
AGAGGGAA | -0.245

Study 5
Target: RNA binding protein fox-1 homolog 2, RRM domain, GST-SBP tag (RBFOX2, Homo sapiens, UniProt O43251-10, residues 100-194)
Technique: RNA Bind-n-Seq
Molecule type: RNA
Sample: in vitro
Tested at: 365 nM
Notes: natural RNA segment, single round, ends assumed
Reference: no-protein control
Direction: higher = stronger binding
All sequences stand within: GGGAGUUCUACAGUCCGACGAUC … UGGAAUUCUCGGGUGCCAA
Construct (chain): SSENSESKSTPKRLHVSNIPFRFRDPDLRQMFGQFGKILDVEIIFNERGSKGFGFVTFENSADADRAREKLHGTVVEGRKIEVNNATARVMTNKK
Sequence | RBNS enrichment (R)
UUUUAAAAUAGAGCUUUGUAUACUAUGUAAGCAGUUUUAUAUCAGCUUUGUAAAAGCUUUGGUGUUAAGAGUCAAUAUUUUUUGGCUUUGUAGAUAAAGACUUAAAUUUU | 0.547
GGAAAUACCCCUAGUCCCCAAAGUUCACUUCUAGCUGCAGGUAGACAAUGAGUAACUGGUCUACUGAACCCUUUAAUAGCAUUUUAAUGUUACUGAGUCAGGAGAUUCAU | 0.449
GUAGGUGUGCAAGAAGCCAUUUCCCCAUAAGCACUGGCCUUUGAUGGCCCCCUCAGCCUACCUGGUGUGGCCACCCAGCUGUGGCUCAGCCAUCCCCGCCCUCCCUCCGC | 0.325
UUUUUUGGUGUUUUAAUGGGCCCAGAACUGUGGUUUAAAUUUUUAUGUAUGUAUUUUCUUUUUUGUGGAGUAUAAAUUUAAAAACUGGAUUUGGGACCUAAAAUACUCCU | 1.82
ACAGAUACAGUCUCCUUGGCUUAUAGGACUUCCUAGCUACACUUUCCUUAGCGCAUUAAUGUGAUGCUCACUCUGUGUUAAAACUGCAGCCGUUGUCUUUCUCAACUGCU | 0.274
AGACUCCUGUCUUUUACCCUCCCCUCGUUCCAGACCUGCCUCAUGGUGGCAACAUGGUUCUUGAACAAUUAAAGAAACAAAUGACUUUUUGGAAUAGCCCUGUCUAGGGC | 0.467
AGUUUCAAGCAUUCCAAAUAAAUUAUCAAUGUUUCAUAACUUUUUAUUAUAAACCCACCUCCUAAUAGGAAGCCAAGUACUAUUUGAUACAGUGGUAAAAACCAAACUAC | 0.432
AGAGGAAAAUUGGCACCUCAUCUUUUAAAGGCAGUAAUGGAAUUGAUUUUCAGUAACUGAAUUUGUGCACAAAACAUUCUAAACACUAGUGAAGCCUGUUUCGUUGAACU | 0.36

A few entries again (study 3):
Sequence | E-score
AGTCCGAT | 0.0731
ACGGCCGA | -0.182
CGCAAAAC | 0.049
AAACATGA | 0.285
AGTTATGA | 0.41
CGTCAGTC | -0.147
